Published values of several laboratories.
Compare with care: the assays were run in different laboratories. Values joined by “and” are separate records of one study, mostly repeats; a detail may differ. Numbers after ± are the reported error.

`CC1(C)C(C=C(Cl)Cl)C1C(=O)OCc1c(F)ccc(F)c1F` (centres unmarked) gave an LC50 of 0.0494 mg/m² (Anopheles funestus; tile contact bioassay; FANG, susceptible, female adults; 30 min exposure, 24 h mortality).
`NCCCn1c2ccc([N+](=O)[O-])cc2c(=O)n1Cc1ccccc1` has a selectivity index of 90 (Leishmania amazonensis; promastigotes, MHOM/BR/77/LTB0016; baseline: CC50 macrophages over IC50 promastigotes).
For `CCC(=O)N(C)c1ccc(Cl)c(Cl)c1`, the revertant colonies was 18 ± 6.4 revertants/plate (Salmonella typhimurium; Ames test; TA1535; 0.10 mg/plate, with rat liver S9).
With `CC1(C)C(C=C(Cl)Cl)C1C(=O)OCc1ccc(F)cc1` (centres unmarked) the LC50 was 1.41 mg/m² (Anopheles funestus; tile contact bioassay; FUMOZ-R, resistant, female adults; 30 min exposure, 24 h mortality).
`NCCn1c2ccc([N+](=O)[O-])cc2c(=O)n1Cc1ccccc1` has a selectivity index of 16 (Leishmania amazonensis; mouse peritoneal macrophages; intracellular amastigotes; baseline: CC50 macrophages over IC50 amastigotes).
`COc1ccc(CNc2nc(N3CCC[C@H]3CO)ncc2C(=O)NNC(=O)c2cnc(N3CCC[C@H]3CO)nc2NCc2ccc(OC)c(Cl)c2)cc1Cl` has a revertant count of 274 ± 6 (Salmonella typhimurium; TA102; 62.5 µg/plate).
The selectivity index of `CC(=O)OCCn1c2ccc([N+](=O)[O-])cc2c(=O)n1Cc1ccccc1` is reported as 875 (Leishmania amazonensis; mouse peritoneal macrophages; intracellular amastigotes; baseline: CC50 macrophages over IC50 amastigotes).
`CC[C@H](C)[C@H](NC(=O)[C@H](CCCNC(=N)N)NC(=O)[C@@H](NC(=O)[C@H](C)NC(=O)[C@@H](NC(=O)[C@@H](NC(=O)[C@H](CC(C)C)NC(=O)[C@H](CCCNC(=N)N)NC(=O)[C@@H](N)C(C)C)[C@@H](C)CC)C(C)C)C(C)C)C(=O)N[C@@H](Cc1c[nH]c2ccccc12)C(=O)N[C@@H](CCCNC(=N)N)C(=O)N[C@@H](CCCNC(=N)N)C(N)=O` has a survival of 90 ± 14% (Galleria mellonella; concentration not given, 24 h, uninfected larvae, toxicity).
For `CC(=O)Oc1ccc(Cn2nc(C)c(=O)[nH]c2=O)cc1C1OC(c2cccc(Cl)c2)=NN1C(C)=O` (centres unmarked), the selectivity index was 2.4 (Leishmania donovani; RAW264.7; intramacrophage amastigotes; baseline: CC50 over IC50).
`CCCCNCC(O)Cn1c2ccc(Cl)cc2c2cc(Cl)ccc21` (centres unmarked) has a mortality of 100% (Schistosoma japonicum; 10 µg/mL, juvenile schistosomula).
`COC(=O)Cn1c2ccc([N+](=O)[O-])cc2c(=O)n1Cc1ccccc1` gave a selectivity index of < 17 (Leishmania amazonensis; mouse peritoneal macrophages; intracellular amastigotes; baseline: CC50 macrophages over IC50 amastigotes).
For `CC(=NNC(=N)N)c1nnn(-c2ccc(C#CC3(O)CCCCC3)cc2)c1C`, the selectivity index was 2.75 (Enterococcus faecalis; Caco-2, ATCC 51299; baseline: Caco-2 IC50 over MIC).
`NCC(=O)N[C@@H](Cc1ccc(O)cc1)C(=O)N[C@@H](Cc1ccccc1)C(=O)N[C@@H](CC(=O)O)C(=O)O` has a half-life of 8.7 min (Aplysia californica; ganglion homogenate; 50 µM, pH 7.4, 37 °C).
`CC[C@H](C)[C@H](NC(=O)[C@H](CCCCN)NC(=O)[C@H](C)NC(=O)[C@H](CC(C)C)NC(=O)[C@H](C)NC(=O)[C@H](CO)NC(=O)[C@H](CC(C)C)NC(=O)[C@H](CC(C)C)NC(=O)[C@H](CCCCN)NC(=O)[C@@H]1CCCN1C(=O)[C@H](CC(C)C)NC(=O)[C@H](Cc1ccccc1)NC(=O)[C@H](CCCCN)NC(=O)[C@H](CCCCN)NC(=O)[C@H](CCCCN)NC(=O)[C@H](CCCCN)NC(=O)[C@H](CCCCN)NC(=O)[C@@H](N)CCCCN)C(=O)N[C@@H](CC(C)C)C(N)=O` has a mortality increase of 40% and 20% (Galleria mellonella; concentration not given, uninfected larvae, per concentration doubling).
`COc1ccc(CNc2nc(N3CCC[C@H]3CO)ncc2C(=O)NN)cc1Cl` gave a revertant count of 57 ± 2 (Salmonella typhimurium; TA1535; 1000 µg/plate, 48 h, with: rat liver S9).
`CC1(C)C(C=C(Cl)Cl)C1C(=O)OCc1c(F)c(F)c(F)c(F)c1F` (centres unmarked) has an LC50 of 0.0446 mg/m² (Anopheles funestus; tile contact bioassay; FUMOZ-R, resistant, female adults; 30 min exposure, 24 h mortality).
For `O=c1c2cc([N+](=O)[O-])ccc2n(CCN2CCCC2)n1Cc1ccccc1`, the selectivity index was 27 (Leishmania amazonensis; mouse peritoneal macrophages; intracellular amastigotes; baseline: CC50 macrophages over IC50 amastigotes).
`CC1(C)C(C=C(Cl)Cl)C1C(=O)OCc1ccccc1` (centres unmarked) has an LC50 of 1.19 mg/m² (Anopheles funestus; tile contact bioassay; FANG, susceptible, female adults; 30 min exposure, 24 h mortality).
`CC[C@H](C)[C@H](NC(=O)[C@@H](CCCNC(=N)N)NC(=O)[C@H](CCCNC(=N)N)NC(=O)[C@H](Cc1ccccc1)NC(=O)[C@H](Cc1c[nH]c2ccccc12)NC(=O)[C@H](CCCNC(=N)N)NC(=O)[C@@H]1CCCN1C(=O)[C@H](CCCNC(=N)N)NC(=O)[C@@H]1CCCN1C(=O)[C@H](CC(C)C)NC(=O)[C@H](Cc1ccc(O)cc1)NC(=O)[C@@H]1CCCN1C(=O)[C@@H]1CCCN1C(=O)[C@H](CCCCN)NC(=O)[C@H](CC(=O)O)NC(=O)[C@@H](N)C(C)C)C(=O)N[C@@H](Cc1ccc(O)cc1)C(=O)N[C@@H](CC(N)=O)C(=O)N[C@H](CCCNC(=N)N)C(N)=O` — result for “cellular peptide amount”: 475 ng (Acinetobacter baumannii; LC-MS; 8 µg/mL, 30 min).
The CC50 of `C[C@@H](O)[C@H](NC(=O)[C@@H]1CCCN1C(=O)[C@H](Cc1ccc(O)cc1)NC(=O)CNC(=O)[C@H](CCCNC(=N)N)NC(=O)CNC(=O)[C@H](CO)NC(=O)[C@H](Cc1c[nH]cn1)NC(=O)OCC1c2ccccc2-c2ccccc21)C(=O)N[C@@H](CO)C(=O)N1CCC[C@H]1C(=O)N[C@@H](Cc1c[nH]c2ccccc12)C(=O)N[C@@H](CO)C(=O)O` is reported as > 200 µg/mL (Escherichia coli; bacterial growth, OD600; BL21, LB medium; 6 h).

Some of these lines once more:
`CC1(C)C(C=C(Cl)Cl)C1C(=O)OCc1c(F)c(F)c(F)c(F)c1F` (centres unmarked) has an LC50 of 0.0446 mg/m² (Anopheles funestus; tile contact bioassay; FUMOZ-R, resistant, female adults; 30 min exposure, 24 h mortality).
For `O=c1c2cc([N+](=O)[O-])ccc2n(CCN2CCCC2)n1Cc1ccccc1`, the selectivity index was 27 (Leishmania amazonensis; mouse peritoneal macrophages; intracellular amastigotes; baseline: CC50 macrophages over IC50 amastigotes).
`CC1(C)C(C=C(Cl)Cl)C1C(=O)OCc1ccccc1` (centres unmarked) has an LC50 of 1.19 mg/m² (Anopheles funestus; tile contact bioassay; FANG, susceptible, female adults; 30 min exposure, 24 h mortality).
